Assay results pooled from the literature.
Protocols differ between the studies behind these lines. Numbers after ± are the reported error.
CDK16 with cyclin Y: Cyclin-dependent kinase 16, with cyclin Y (CDK16, Homo sapiens, UniProt Q00536)
Chain of UniProt Q00536 (whole entry, looked up): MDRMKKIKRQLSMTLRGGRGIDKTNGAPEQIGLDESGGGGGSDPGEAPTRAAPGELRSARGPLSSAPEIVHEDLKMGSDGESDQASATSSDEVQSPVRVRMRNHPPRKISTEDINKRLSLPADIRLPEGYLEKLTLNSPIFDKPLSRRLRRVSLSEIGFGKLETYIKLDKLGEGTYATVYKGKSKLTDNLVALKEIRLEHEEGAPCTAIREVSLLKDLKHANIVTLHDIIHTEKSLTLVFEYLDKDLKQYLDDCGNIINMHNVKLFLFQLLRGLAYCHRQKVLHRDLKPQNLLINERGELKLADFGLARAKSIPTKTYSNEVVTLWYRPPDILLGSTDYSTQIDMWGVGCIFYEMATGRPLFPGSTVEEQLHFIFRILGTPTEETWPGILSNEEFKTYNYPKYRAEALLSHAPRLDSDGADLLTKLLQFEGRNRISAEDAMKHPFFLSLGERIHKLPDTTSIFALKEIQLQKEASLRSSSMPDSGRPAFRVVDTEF
rhlR: HTH-type quorum-sensing regulator RhlR (rhlR, Pseudomonas aeruginosa, UniProt P54292)
Chain of UniProt P54292 (whole entry, looked up): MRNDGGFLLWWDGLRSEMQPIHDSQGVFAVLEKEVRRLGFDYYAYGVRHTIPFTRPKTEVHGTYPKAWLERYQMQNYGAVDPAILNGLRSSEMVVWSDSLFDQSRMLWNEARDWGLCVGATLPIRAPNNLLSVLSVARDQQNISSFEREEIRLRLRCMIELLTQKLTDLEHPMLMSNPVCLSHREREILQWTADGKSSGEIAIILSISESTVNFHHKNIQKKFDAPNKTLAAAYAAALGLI
FGFR4: Fibroblast growth factor receptor 4 (FGFR4, Homo sapiens, UniProt P22455)
Chain of UniProt P22455 (whole entry, looked up): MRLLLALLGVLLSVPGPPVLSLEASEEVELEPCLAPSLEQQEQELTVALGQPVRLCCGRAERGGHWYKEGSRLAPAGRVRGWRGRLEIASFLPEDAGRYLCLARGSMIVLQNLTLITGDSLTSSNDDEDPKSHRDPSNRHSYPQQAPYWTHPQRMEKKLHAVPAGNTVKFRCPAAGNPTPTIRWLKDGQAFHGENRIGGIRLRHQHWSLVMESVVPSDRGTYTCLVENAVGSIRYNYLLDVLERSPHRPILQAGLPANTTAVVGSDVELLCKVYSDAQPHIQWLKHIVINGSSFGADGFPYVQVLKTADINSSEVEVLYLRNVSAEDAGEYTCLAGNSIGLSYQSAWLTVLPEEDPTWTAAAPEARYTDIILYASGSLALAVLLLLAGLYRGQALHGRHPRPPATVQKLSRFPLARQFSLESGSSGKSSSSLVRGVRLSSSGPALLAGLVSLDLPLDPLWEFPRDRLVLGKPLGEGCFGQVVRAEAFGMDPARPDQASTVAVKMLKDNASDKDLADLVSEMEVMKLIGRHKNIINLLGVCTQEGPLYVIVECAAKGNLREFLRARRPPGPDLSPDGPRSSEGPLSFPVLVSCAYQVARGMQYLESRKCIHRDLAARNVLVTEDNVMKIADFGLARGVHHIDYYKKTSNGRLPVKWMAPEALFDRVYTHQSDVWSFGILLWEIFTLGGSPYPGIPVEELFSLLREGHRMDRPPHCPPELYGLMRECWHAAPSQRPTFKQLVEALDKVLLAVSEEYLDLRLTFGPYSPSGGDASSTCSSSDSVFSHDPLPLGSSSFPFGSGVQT
MPO: Myeloperoxidase (MPO, Homo sapiens, UniProt P05164)
Chain of UniProt P05164 (whole entry, looked up): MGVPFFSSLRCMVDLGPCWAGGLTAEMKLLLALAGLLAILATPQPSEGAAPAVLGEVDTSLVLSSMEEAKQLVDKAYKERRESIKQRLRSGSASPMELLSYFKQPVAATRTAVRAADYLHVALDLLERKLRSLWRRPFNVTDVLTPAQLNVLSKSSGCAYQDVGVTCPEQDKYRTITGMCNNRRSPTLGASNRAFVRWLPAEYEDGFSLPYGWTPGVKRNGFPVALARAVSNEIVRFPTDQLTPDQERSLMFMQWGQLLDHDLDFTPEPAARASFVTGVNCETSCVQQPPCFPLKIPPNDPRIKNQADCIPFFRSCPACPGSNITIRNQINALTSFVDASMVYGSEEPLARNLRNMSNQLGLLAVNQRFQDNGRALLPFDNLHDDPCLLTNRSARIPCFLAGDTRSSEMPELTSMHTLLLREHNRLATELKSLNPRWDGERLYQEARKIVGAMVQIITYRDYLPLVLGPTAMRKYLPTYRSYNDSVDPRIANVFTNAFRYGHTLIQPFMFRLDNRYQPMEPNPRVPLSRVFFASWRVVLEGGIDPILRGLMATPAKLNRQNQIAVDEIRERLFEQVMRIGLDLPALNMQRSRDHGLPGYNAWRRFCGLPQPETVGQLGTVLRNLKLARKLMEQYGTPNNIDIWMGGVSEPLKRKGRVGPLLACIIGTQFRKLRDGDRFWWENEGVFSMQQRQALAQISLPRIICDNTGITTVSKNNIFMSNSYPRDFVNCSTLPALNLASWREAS
USP13 ZnF-UBD domain: Ubiquitin carboxyl-terminal hydrolase 13, ZnF-UBD domain (USP13, Homo sapiens, UniProt Q92995)
Chain of UniProt Q92995 (whole entry, looked up): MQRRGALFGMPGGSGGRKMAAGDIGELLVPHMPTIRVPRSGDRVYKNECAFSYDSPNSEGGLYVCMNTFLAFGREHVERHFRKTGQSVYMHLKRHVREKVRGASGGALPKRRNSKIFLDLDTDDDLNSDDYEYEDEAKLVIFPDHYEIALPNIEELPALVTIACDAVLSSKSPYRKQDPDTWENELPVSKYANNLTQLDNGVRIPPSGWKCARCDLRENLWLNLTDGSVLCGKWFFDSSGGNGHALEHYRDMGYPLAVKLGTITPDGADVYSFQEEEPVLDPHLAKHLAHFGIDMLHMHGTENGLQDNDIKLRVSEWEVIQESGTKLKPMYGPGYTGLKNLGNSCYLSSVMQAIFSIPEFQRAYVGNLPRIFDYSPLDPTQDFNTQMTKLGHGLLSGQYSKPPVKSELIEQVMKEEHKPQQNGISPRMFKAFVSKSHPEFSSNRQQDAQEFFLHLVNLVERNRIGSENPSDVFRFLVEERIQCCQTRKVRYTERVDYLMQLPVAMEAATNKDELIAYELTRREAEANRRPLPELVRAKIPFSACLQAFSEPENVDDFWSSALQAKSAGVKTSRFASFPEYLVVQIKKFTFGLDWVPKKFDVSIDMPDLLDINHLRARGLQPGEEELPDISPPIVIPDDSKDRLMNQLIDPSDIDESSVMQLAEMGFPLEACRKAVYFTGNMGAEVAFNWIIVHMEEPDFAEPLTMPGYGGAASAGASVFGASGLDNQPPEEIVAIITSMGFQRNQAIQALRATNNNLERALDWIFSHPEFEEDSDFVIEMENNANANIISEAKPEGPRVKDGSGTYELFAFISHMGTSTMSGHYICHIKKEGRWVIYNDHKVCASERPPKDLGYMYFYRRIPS
Astl: Astacin-like metalloendopeptidase (Astl, Mus musculus, UniProt Q6HA09)
Chain of UniProt Q6HA09 (whole entry, looked up): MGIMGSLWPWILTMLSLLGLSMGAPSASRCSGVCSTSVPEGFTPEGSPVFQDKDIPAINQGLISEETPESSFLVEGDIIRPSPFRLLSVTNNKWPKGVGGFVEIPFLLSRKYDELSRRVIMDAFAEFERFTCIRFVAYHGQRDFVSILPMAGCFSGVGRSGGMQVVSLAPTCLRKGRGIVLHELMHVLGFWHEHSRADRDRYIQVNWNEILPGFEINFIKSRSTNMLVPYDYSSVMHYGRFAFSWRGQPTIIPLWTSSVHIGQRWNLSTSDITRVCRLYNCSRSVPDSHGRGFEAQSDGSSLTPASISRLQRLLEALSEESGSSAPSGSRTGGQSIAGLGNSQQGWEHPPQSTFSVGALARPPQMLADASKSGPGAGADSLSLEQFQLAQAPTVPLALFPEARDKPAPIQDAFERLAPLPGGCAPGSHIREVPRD
BRAF: Serine/threonine-protein kinase B-raf (BRAF, Homo sapiens, UniProt P15056)
Chain of UniProt P15056 (whole entry, looked up): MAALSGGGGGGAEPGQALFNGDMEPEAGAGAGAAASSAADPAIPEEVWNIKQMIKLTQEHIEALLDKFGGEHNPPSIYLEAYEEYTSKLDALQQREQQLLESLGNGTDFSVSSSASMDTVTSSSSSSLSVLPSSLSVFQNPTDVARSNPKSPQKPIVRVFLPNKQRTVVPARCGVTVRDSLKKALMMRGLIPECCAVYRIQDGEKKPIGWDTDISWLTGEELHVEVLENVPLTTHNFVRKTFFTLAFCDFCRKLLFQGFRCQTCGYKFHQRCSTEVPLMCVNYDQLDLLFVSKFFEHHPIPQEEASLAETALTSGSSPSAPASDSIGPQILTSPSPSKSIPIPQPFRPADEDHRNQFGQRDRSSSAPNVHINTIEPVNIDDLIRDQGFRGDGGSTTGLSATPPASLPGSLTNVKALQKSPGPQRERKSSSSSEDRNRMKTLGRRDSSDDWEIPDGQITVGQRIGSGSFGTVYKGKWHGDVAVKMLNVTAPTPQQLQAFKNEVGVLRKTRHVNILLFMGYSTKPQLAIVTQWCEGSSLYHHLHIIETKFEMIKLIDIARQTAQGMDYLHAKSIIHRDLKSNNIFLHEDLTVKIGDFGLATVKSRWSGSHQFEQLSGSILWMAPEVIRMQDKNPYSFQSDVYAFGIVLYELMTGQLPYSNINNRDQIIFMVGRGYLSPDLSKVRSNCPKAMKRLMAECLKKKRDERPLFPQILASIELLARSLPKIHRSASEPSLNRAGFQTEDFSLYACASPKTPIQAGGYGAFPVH
Chain of UniProt Q13188 (whole entry, looked up): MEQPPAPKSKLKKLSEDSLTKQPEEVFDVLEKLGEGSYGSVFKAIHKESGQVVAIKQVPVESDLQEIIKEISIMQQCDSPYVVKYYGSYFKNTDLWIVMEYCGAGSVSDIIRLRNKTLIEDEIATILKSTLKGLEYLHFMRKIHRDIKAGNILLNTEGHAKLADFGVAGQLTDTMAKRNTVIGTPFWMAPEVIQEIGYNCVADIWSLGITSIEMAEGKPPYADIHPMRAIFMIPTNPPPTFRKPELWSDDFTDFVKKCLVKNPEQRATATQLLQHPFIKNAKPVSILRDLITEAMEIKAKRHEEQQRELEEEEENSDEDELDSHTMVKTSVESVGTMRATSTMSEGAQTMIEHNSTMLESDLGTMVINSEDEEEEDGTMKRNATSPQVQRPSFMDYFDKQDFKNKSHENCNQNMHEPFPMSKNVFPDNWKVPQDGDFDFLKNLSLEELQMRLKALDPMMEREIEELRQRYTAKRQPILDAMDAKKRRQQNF

SMILES = C=CC(=O)N1CCC[C@@H](n2nc(-c3ccc(Oc4ccccc4)cc3)c3c(N)ncnc32)C1; tested on = CDK16 with cyclin Y; assay = kinase activity, inhibitor, HotSpot radiometric; setting = 100 nM, added: ATP 10 µM; measurement = remaining activity; result = 91.7 ± 5.2%
SMILES = Cc1cc(NC(=O)c2cccc(NC(=O)/C=C/CN(C)C)c2)ccc1Nc1nccc(-c2cccnc2)n1; tested on = MAPK8 (Homo sapiens, UniProt P45983); assay = enzyme activity, inhibitor; setting = 0.02032 µM, 6 h, unit not given, added: GSH 10 mM pre-incubation; how to read = relative to: vehicle; measurement = remaining activity; result = 0.936
SMILES = C=CC(=O)N1CCC([C@@H]2CCNc3c(C(N)=O)c(-c4ccc(Oc5ccccc5)cc4)nn32)CC1; tested on = MAP4K1 (Homo sapiens, UniProt Q92918); assay = kinase activity, inhibitor, HotSpot radiometric; setting = 100 nM, added: ATP 10 µM; measurement = remaining activity; result = 86.9 ± 2.1%
SMILES = O=C1NC(=O)/C(=C/c2ccc(-c3ccc(F)cc3O)o2)S1; tested on = STK3 (Homo sapiens, UniProt Q13188); assay = enzyme activity; setting = 10 µM; measurement = remaining activity; result = 60%
SMILES = COc1cc(C#CC(O)c2ccccc2)ccc1O (centres unmarked); tested on = rhlR; assay = reporter gene, inhibitor, quorum sensing reporter strain; setting = 10 µM, 1.5 h; how to read = relative to: DMSO; measurement = remaining activity; result = 60%
SMILES = CNc1ncc2c(/C=C/C(=O)N3CCC(OC)CC3)nn(Cc3cccc(C(F)(F)F)c3)c2n1; tested on = FGFR1; assay = kinase activity; setting = 1 µM; how to read = relative to: control; measurement = remaining activity; result = 90%
SMILES = COc1cc(N2CCN(C)CC2)ccc1Nc1nc(N)n(C(=O)NCc2c(Cl)cccc2Cl)n1; tested on = FGFR4; assay = enzyme activity; setting = 10 µM; how to read = relative to: control; measurement = remaining activity; result = 0.05%
SMILES = OC(C#Cc1ccc(F)c(F)c1)c1ccccc1Cl (centres unmarked); tested on = rhlR; assay = reporter gene, inhibitor, quorum sensing reporter strain; setting = 10 µM, 1.5 h; how to read = relative to: DMSO; measurement = remaining activity; result = 58%
SMILES = CC(C)Oc1cc(N2CCN(C)CC2)ccc1Nc1nc(N)n(C(=O)NCc2ccccc2S(=O)(=O)C(C)C)n1; tested on = FGFR4; assay = enzyme activity; setting = 10 µM; how to read = relative to: control; measurement = remaining activity; result = 20%
SMILES = NC/C(=C\F)COc1cccc(Cn2c(=S)[nH]c(=O)c3[nH]cnc32)c1; tested on = MPO; assay = LDL lipid peroxidation, inhibitor, cholesteryl ester hydroperoxide; setting = 0.0556 µM; measurement = remaining activity; result = 26.5%
SMILES = O=C(O)c1ccc(Nc2ncc3c(n2)-c2ccc(Cl)cc2C(c2c(F)cccc2F)=NC3)cc1; tested on = human TrkB(h); assay = kinase activity; setting = 1 µM; measurement = remaining activity; result = 112%
SMILES = O=C(O)CNC(=O)c1ccc(C(=O)N2CCC(c3ccc(Cl)cc3)CC2)cn1; tested on = USP13 ZnF-UBD domain; measurement = Kd; result = 642 µM
SMILES = COc1cc(F)ccc1-c1ncnc(Nc2cccc(C[S@](C)(=N)=O)c2)n1; tested on = MAP3K5 (Homo sapiens, UniProt Q99683); assay = kinase activity; setting = 10 µM, added: 10 µM ATP; measurement = remaining activity; result = 104%
SMILES = O=C(CCN(Cc1ccc2c(c1)OCO2)Cc1ccc(Cl)cc1F)NO; tested on = Astl; assay = enzyme activity, inhibitor, fluorogenic; setting = 5 µM; measurement = remaining activity; result = 26 ± 4%
SMILES = COc1cc(C#C[C@@H](O)CC(C)C)ccc1O; tested on = rhlR; assay = reporter gene, inhibitor, quorum sensing reporter strain; setting = 10 µM, 1.5 h; how to read = relative to: DMSO; measurement = remaining activity; result = 74%
SMILES = CCOc1cc(N2CCN(C)CC2)ccc1Nc1nc(N)n(C(=O)NCc2ccccc2S(=O)(=O)C(C)C)n1; tested on = FGFR4; assay = enzyme activity; setting = 10 µM; how to read = relative to: control; measurement = remaining activity; result = 1%
SMILES = O=C(O)CCn1cccn1; tested on = USP13 ZnF-UBD domain; measurement = Kd; result = 98.2 µM
SMILES = COc1cc(-c2cncc3c2CN(C)Cc2cc(N4CCNCC4)ccc2-3)cc(OC)c1OC; tested on = BRAF; assay = kinase activity; setting = 1 µM, human enzyme, added: ATP 10 µM; how to read = relative to: DMSO control; measurement = remaining activity; result = 96%
SMILES = COc1cc(C#CC(=O)c2ccccc2)ccc1O; tested on = rhlR; assay = reporter gene, inhibitor, quorum sensing reporter strain; setting = 10 µM, 1.5 h; how to read = relative to: DMSO; measurement = remaining activity; result = 52%
SMILES = O=C(CCN(Cc1ccncc1)Cc1ccc(Cl)c(O)c1F)NO; tested on = Astl; assay = enzyme activity, inhibitor, fluorogenic; setting = 0.25 µM; measurement = remaining activity; result = 77 ± 7%
SMILES = O=C(NC1CCC1)c1ccc2nc(-c3cccc(NS(=O)(=O)NCCN4CCCCC4)c3)cn2c1; tested on = PRKAA2 (Homo sapiens, UniProt P54646); assay = enzyme activity; setting = 10 µM; measurement = remaining activity; result = 88%
SMILES = C=CC(=O)N1CCC[C@@H](n2nc(-c3ccc(Oc4ccccc4)cc3)c3c(N)ncnc32)C1; tested on = Elongation factor 1-beta (Homo sapiens, UniProt P24534); setting = 1 µM; measurement = remaining activity; result = 19.8%
SMILES = O=C(CCN(Cc1ccc2c(c1)OCO2)Cc1ccc(Cl)c(O)c1F)NO; tested on = Astl; assay = enzyme activity, inhibitor, fluorogenic; setting = 0.25 µM; measurement = remaining activity; result = 80 ± 6%
SMILES = Cc1cc(Nc2cc(N3CCN(C)CC3)nc(Sc3ccc(NC(=O)C4CC4)cc3)n2)[nH]n1; tested on = SGK2 (Homo sapiens, UniProt Q9HBY8); assay = kinase activity, KinaseProfiler; setting = 0.03 µM, species human; how to read = relative to: control; measurement = remaining activity; result = 59%
SMILES = COc1cc(C#CC(=O)c2ccccc2OC)ccc1O; tested on = rhlR; assay = reporter gene, inhibitor, quorum sensing reporter strain; setting = 10 µM, 1.5 h; how to read = relative to: DMSO; measurement = remaining activity; result = 52%
SMILES = O=C(CCN(Cc1cccnc1)Cc1ccc2c(c1)OCO2)NO; tested on = Astl; assay = enzyme activity, inhibitor, fluorogenic; setting = 5 µM; measurement = remaining activity; result = 49 ± 4%
SMILES = CN(C)CC#Cc1ccc2[nH]c3c(c2c1)-c1nc(N)ncc1CCC3; tested on = TSSK3 (Homo sapiens, UniProt Q96PN8); assay = kinase activity, inhibitor, radiometric; setting = 1 µM, added: ATP at Km; measurement = remaining activity; result = 79%
SMILES = COc1ccccc1C(=O)C#Cc1ccc(F)c(F)c1; tested on = rhlR; assay = reporter gene, inhibitor, quorum sensing reporter strain; setting = 10 µM, 1.5 h; how to read = relative to: DMSO; measurement = remaining activity; result = 50%
SMILES = CC(C)OCCn1c(=S)[nH]c(=O)c2[nH]ccc21; tested on = MPO; assay = LDL lipid peroxidation, inhibitor, cholesteryl ester hydroperoxide; setting = 10 µM; measurement = remaining activity; result = 8.66%
SMILES = CC#CC(=O)N1CCC[C@H]1c1nc(-c2ccc(C(=O)Nc3ccccn3)cc2)c2c(N)nccn12; tested on = BRAF; assay = kinase activity, inhibitor, HotSpot radiometric; setting = 100 nM, added: ATP 10 µM; measurement = remaining activity; result = 90 ± 3.1%
SMILES = CCC(C)C(=O)C#Cc1ccc(O)c(OC)c1 (centres unmarked); tested on = rhlR; assay = reporter gene, inhibitor, quorum sensing reporter strain; setting = 10 µM, 1.5 h; how to read = relative to: DMSO; measurement = remaining activity; result = 93%
SMILES = COc1cc(Nc2ncc3c(n2)-c2ccc(Cl)cc2C(c2c(F)cccc2OC)=NC3)ccc1C(=O)O; tested on = SRPK2; assay = kinase activity; setting = 1 µM; measurement = remaining activity; result = 94%
SMILES = Cn1cc(-c2ccc(-c3cncc(Cl)c3N3CCC4(CCNC4=O)CC3)cc2)cn1; tested on = COLO 205; assay = gene expression, microarray, refers to: CLHC1 mRNA; setting = concentration not given, 6 h; how to read = relative to: untreated cells; measurement = log2 fold change; result = 1.54
SMILES = O=C(C#Cc1ccc(F)c(F)c1)c1ccccc1Cl; tested on = rhlR; assay = reporter gene, inhibitor, quorum sensing reporter strain; setting = 10 µM, 1.5 h; how to read = relative to: DMSO; measurement = remaining activity; result = 63%
SMILES = COc1ccc(F)cc1C(=O)NCc1ccc(-c2nn([C@@H](C)C(F)(F)F)c(N)c2C(N)=O)cc1; tested on = CDK16 with cyclin Y; assay = kinase activity, inhibitor, HotSpot radiometric; setting = 1000 nM, added: ATP at Km; measurement = remaining activity; result = 102.6 ± 1%
